Results pooled from the literature.
Protocols differ between the studies behind these lines. Several values in a cell are separate wells, animals, samples, runs or records. ± marks the error that the study gave.
ADRB1: Beta-1 adrenergic receptor (ADRB1, Homo sapiens, UniProt P08588)
Chain of UniProt Q007T0 (whole entry, looked up): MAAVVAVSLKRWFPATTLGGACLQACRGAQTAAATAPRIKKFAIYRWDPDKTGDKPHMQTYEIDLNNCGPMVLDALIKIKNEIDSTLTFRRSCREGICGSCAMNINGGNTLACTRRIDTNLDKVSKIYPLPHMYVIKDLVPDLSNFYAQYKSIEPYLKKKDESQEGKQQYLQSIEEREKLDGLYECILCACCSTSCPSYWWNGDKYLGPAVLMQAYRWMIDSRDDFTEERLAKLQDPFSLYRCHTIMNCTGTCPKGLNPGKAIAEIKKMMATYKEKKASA
Chain of UniProt A5GZW8 (whole entry, looked up): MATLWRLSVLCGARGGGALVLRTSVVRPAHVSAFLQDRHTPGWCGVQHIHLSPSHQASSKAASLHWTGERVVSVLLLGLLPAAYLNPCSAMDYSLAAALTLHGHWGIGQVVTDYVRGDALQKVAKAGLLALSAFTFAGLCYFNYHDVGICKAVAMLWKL
Chain of UniProt D0VWV4 (whole entry, looked up): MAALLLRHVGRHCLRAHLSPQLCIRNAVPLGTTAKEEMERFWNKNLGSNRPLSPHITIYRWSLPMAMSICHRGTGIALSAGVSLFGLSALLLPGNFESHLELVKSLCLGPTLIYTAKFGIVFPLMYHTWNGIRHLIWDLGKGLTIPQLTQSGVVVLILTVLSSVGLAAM
Chain of UniProt P08588 (whole entry, looked up): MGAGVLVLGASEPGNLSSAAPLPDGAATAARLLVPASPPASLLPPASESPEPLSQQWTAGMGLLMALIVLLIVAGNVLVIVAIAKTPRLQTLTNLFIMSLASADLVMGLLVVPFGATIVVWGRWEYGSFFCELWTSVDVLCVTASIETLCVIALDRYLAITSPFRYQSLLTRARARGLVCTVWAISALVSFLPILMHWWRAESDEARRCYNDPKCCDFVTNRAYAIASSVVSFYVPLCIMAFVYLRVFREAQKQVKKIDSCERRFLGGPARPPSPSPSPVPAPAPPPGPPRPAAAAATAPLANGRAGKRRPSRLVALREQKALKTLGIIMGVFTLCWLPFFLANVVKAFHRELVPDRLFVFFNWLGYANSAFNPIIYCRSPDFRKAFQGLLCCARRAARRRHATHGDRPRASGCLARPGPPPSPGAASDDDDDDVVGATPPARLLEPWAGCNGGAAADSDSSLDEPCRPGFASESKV
Chain of UniProt Q62351 (whole entry, looked up): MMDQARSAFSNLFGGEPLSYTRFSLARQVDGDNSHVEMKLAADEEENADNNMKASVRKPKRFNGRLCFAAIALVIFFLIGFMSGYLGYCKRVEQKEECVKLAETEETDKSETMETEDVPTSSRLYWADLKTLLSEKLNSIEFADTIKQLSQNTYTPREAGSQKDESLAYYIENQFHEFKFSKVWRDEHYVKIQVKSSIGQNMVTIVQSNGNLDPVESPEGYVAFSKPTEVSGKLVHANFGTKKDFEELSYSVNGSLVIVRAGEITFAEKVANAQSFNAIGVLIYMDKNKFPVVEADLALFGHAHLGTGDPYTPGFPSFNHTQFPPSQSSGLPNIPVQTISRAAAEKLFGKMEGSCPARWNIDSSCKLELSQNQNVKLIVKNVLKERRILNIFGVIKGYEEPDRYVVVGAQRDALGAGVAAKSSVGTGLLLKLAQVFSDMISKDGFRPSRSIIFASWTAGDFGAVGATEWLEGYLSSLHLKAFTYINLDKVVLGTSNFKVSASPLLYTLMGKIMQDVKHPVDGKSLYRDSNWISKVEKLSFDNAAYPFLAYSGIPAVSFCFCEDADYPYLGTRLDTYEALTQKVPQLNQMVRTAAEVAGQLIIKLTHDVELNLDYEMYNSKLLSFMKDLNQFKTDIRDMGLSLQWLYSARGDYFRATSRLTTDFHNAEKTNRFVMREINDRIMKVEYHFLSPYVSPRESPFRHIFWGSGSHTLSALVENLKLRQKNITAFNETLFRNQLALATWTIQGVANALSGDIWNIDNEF
Chain of UniProt Q9H1Y3 (whole entry, looked up): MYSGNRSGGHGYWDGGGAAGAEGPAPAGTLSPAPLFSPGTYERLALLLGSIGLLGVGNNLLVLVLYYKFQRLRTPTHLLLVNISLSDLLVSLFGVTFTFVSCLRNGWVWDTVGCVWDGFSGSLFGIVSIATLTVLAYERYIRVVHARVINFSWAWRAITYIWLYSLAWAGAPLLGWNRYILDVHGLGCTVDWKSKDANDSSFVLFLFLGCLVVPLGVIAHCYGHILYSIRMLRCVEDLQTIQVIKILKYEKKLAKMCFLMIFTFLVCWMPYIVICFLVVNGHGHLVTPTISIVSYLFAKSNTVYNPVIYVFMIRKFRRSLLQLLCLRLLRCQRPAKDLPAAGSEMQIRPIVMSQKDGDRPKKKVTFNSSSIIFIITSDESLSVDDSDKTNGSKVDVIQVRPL
Chain of UniProt Q8DNB6 (whole entry, looked up): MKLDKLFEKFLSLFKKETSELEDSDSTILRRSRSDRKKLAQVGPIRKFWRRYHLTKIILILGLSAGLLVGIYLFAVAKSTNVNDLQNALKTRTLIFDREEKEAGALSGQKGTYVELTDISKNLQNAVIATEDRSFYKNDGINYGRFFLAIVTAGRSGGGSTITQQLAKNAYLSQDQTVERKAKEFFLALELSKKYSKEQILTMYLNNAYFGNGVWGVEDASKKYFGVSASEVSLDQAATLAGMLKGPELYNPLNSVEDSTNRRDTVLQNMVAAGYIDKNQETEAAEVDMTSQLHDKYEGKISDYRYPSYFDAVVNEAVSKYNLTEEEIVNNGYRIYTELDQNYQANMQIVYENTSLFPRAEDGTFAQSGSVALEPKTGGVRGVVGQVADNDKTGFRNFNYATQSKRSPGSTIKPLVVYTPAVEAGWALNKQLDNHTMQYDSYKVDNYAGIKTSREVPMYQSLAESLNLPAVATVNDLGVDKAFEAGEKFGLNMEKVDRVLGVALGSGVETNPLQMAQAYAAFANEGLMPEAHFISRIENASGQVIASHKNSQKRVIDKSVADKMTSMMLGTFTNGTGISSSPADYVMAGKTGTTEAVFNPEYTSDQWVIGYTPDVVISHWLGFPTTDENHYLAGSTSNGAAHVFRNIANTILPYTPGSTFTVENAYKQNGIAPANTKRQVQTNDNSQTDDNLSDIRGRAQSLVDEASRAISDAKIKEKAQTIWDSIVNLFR
Chain of UniProt Q13133 (whole entry, looked up): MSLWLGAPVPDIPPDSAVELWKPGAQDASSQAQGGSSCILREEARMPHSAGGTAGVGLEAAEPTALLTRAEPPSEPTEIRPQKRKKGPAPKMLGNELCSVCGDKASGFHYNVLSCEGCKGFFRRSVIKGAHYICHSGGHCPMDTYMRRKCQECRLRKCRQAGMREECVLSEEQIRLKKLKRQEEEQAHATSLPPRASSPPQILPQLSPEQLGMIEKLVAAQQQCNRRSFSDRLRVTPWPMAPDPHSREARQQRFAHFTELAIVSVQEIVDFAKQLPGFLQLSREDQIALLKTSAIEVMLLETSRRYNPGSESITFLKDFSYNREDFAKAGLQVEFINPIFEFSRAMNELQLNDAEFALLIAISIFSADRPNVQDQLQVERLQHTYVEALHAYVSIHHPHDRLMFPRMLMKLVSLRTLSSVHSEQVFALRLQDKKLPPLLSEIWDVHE
Chain of UniProt Q14416 (whole entry, looked up): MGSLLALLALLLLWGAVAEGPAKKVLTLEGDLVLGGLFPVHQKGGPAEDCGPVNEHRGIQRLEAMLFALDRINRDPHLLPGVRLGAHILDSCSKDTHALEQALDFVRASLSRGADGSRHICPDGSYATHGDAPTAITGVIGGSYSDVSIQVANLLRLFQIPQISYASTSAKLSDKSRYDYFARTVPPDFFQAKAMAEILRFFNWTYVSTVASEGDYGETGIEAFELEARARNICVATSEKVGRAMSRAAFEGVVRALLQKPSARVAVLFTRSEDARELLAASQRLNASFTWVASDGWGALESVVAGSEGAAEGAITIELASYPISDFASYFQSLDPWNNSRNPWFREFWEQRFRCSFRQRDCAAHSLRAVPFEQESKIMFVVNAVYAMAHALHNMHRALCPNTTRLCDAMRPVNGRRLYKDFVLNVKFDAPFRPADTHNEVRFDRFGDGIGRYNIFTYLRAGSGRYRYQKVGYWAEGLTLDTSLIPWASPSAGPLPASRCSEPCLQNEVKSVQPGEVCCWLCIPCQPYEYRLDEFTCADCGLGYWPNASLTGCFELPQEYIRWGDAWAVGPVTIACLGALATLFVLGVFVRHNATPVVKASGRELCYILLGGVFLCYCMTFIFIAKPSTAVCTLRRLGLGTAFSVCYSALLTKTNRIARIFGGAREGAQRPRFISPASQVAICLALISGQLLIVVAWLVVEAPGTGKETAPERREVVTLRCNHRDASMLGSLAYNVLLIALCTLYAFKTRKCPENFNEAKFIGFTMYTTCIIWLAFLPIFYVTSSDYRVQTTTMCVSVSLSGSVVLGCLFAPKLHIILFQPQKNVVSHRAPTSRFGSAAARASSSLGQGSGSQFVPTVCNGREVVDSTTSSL
Chain of UniProt Q9NSD7 (whole entry, looked up): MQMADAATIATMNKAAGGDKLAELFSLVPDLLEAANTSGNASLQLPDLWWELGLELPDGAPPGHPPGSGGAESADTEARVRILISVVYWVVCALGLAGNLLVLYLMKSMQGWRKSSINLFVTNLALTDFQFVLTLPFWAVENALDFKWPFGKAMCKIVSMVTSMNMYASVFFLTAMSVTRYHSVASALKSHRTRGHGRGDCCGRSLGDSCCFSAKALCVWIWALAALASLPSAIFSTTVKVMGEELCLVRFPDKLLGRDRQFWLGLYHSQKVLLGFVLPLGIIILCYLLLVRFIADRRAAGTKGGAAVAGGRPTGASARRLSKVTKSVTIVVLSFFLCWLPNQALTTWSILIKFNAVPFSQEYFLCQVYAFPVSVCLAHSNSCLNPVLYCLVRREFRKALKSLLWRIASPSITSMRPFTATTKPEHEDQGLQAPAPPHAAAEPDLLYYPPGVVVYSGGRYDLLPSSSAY

| Structure (SMILES) | target | assay | system | conditions | scale | quantity | result |
| --- | --- | --- | --- | --- | --- | --- | --- |
| Cc1ccc([C@H]2C[C@@H]2COc2cc(NCc3nnc(C)s3)nc(C)n2)nc1 | High affinity cAMP-specific and IBMX-insensitive 3',5'-cyclic phosphodiesterase 8A (PDE8A, Homo sapiens, UniProt O60658) | enzyme activity, inhibitor, IMAP fluorescence polarization |  | isoform PDE8A1 | reference: Ki target over Ki PDE10A2 | selectivity ratio | > 1.72e+06 fold |
| C[C@H]1COCCN1c1nc(NCc2cccnc2C(F)(F)F)c2cccnc2n1 | ADRB1 | binding |  | CEREP panel |  | IC50 | > 100 µM |
| O=C1c2ccccc2C(=O)C1C(=O)C(c1ccccc1)c1ccccc1 | Oxysterols receptor LXR-alpha (NR1H3, Homo sapiens, UniProt Q13133) |  |  | concentration not given |  | activity | inactive |
| C[C@H]1CN(c2n[nH]c3nc(N[C@H]4CC[C@H](NS(=O)(=O)CCC(F)(F)F)CC4)ncc23)CCO1 | Exportin-1 (XPO1, Homo sapiens, UniProt O14980) | inhibitor, Kinobeads competition profiling |  | 0.16 µM | reference: vehicle | relative abundance | 0.9 |
| [2H]c1c([2H])c([C@]2([2H])CCCN2C(=O)C(C)(C)Oc2ccc3cn[nH]c3c2)c([2H])c([2H])c1C([2H])([2H])[2H] | Mitogen-activated protein kinase kinase kinase 11 (MAP3K11, Homo sapiens, UniProt Q16584) | KINOMEscan |  | 1 µM | reference: DMSO control | remaining binding | 83% |
| O=C(Nc1cccnn1)N1CCC(=Cc2cccc(Oc3ccc(C(F)(F)F)cn3)c2)CC1 | Alpha-2-HS-glycoprotein (Ahsg, Rattus norvegicus, UniProt P24090) | competitive ABPP with azido-FP probe | rat brain soluble fraction | 0.01 µM, unit not given | reference: DMSO | probe labelling | -1.2 |
| O=C(O)Cc1c[nH]cn1 | Sodium- and chloride-dependent taurine transporter (SLC6A6, Homo sapiens, UniProt P31641, Y138A) | binding, microscale thermophoresis |  | 30.5 nM, room temperature, together with: 50 nM labelled protein | higher = more binding | normalised MST signal | 0.0615 |
| CN1CCN(c2cc(-c3ccncc3)c(-c3ccc4ccccc4c3)nn2)CC1 | ADRB1 | agonist, FLIPR |  | 12.5 µM |  | activation | -0.9% |
| COc1cc(O)cc(/C=C/c2ccc(O)cc2)c1 | O-methyltransferase (Sorghum bicolor, UniProt A0A1B6PFV1) | ITC |  | together with: SAH+ |  | -TΔS | 1.05 kcal/mol |
| CC[C@H](C)[C@@H]1NC(=O)[C@H](Cc2c[nH]c3ccccc23)NC(=O)[C@H](Cc2ccc(O)cc2)NC(=O)CSC[C@@H](C(N)=O)NC(=O)[C@H]([C@@H](C)O)NC(=O)[C@H](CO)NC(=O)[C@H](C(C)C)NC(=O)[C@H](Cc2ccc(O)cc2)NC(=O)[C@H](CCCNC(=N)N)NC(=O)[C@H](Cc2ccc(O)cc2)NC(=O)[C@H]([C@@H](C)O)NC(=O)[C@H]([C@@H](C)O)NC(=O)[C@H](Cc2c[nH]c3ccccc23)NC(=O)[C@H](CO)NC(=O)[C@H](CC(N)=O)NC(=O)[C@H](CO)NC1=O | Vacuolar protein sorting-associated protein 26A/Vacuolar protein sorting-associated protein 35, Vps35 residues 1–224 (Homo sapiens, UniProt O75436+Q96QK1) | ITC |  | 25 °C |  | -TΔS | -2.1 ± 1.7 kcal/mol |
| C=CC(=O)N[C@H]1C=C(C)c2c(-c3cnc4ccccc4c3)c3c(N)ncnc3n2C1 | Epidermal growth factor receptor (EGFR, Homo sapiens, UniProt P00533) | irreversible inhibitor, PD turnover model, refers to: EGFR phosphorylation | mouse, NCI-H2073 xenograft |  |  | binding rate constant | 2.85 h⁻¹ |
| CCCCCCCCCC(=O)CC(=O)Nc1ccccc1 | qscR (Pseudomonas aeruginosa, UniProt G3XD77) | reporter gene, agonist |  | 100 µM |  | activation | 22% |
| O=C(O)COP(=O)(O)O | TPI1 (Saccharomyces cerevisiae, UniProt P00942, S211A) | enzyme activity, competitive inhibitor, GPDH/NADH-coupled |  | pH 7.5, 25 °C, ionic strength 0.1 NaCl, together with: glyceraldehyde 3-phosphate substrate | reference: mutant over wild type | Ki ratio | 114 |
| CC1(C)S[C@@H]2[C@H](NC(=O)[C@H](N)c3ccccc3)C(=O)N2[C@H]1C(=O)O | Penicillin-binding protein 2a (pbp2a, Streptococcus pneumoniae, UniProt Q8DNB6) | inhibitor |  |  |  | kinact/KI | 4600 ± 480 M⁻¹ s⁻¹ |
| O=C(Nc1cnccc1Cl)N1CCN(Cc2ccc3c(c2)OC(F)(F)O3)CC1 | Metabotropic glutamate receptor 2 (GRM2, Homo sapiens, UniProt Q14416) | radioligand binding |  | 10 µM, together with: [3H]LY341495 |  | inhibition of binding | 9% |
| O=C(c1ccc(Cl)cc1)N1CCN2C(=O)N(OC(=O)N3CCOc4ccccc43)C(=O)C2C1 (centres unmarked) | Platelet-activating factor acetylhydrolase IB subunit alpha1 (Homo sapiens, UniProt Q15102) | MS-based ABPP | SW-620 conditioned medium | 10 µM, 1 h, 37 °C | reference: compound over DMSO, lower = more inhibition | mean protein ratio | 0.83 |
| CC[C@@H](C)[C@@H](NC(=O)[C@@H](Cc1ccc(O)cc1)NC(=O)[C@H]1CCCN1C(=O)[C@@H](CCCNC(=N)N)NC(=O)[C@H](N)Cc1c[nH]cn1)C(=O)N[C@H](C)C(=O)N[C@H](Cc1c[nH]cn1)C(=O)N[C@H](CCCNC(=N)N)C(=O)N[C@H](CCCCNC(=O)c1cccc(S(=O)(=O)F)c1)C(=O)N[C@H](Cc1ccc(O)cc1)C(=O)N[C@H](CO)C(=O)N[C@H](Cc1ccccc1)C(N)=O | Transferrin receptor protein 1 (Tfrc, Mus musculus, UniProt Q62351) | flow cytometry | MC-38 | 48 h, unit not given | reference: 0 h | surface expression | 0.372 and 0.383 |
| CCCc1scc2c1-c1nc(SCC(=O)C(C)(C)C)ncc1CC2 | Dual specificity protein phosphatase 10, catalytic domain (Homo sapiens, UniProt Q9Y6W6) | X-ray co-crystal structure |  | concentration not given |  | active site volume | 51.8 ± 1 Å³ |
| Nc1nc2c(ncn2[C@@H]2O[C@@H]3COP(=O)(O)O[C@H]4[C@@H](O)[C@H](n5cnc6c(=O)[nH]c(N)nc65)O[C@@H]4COP(=O)(O)O[C@H]3[C@H]2O)c(=O)[nH]1 | Cell cycle histidine kinase CckA, R374A; cytoplasmic region (Caulobacter vibrioides, UniProt Q9X688, R374A) | ITC |  | together with: AMPPNP 5 mM |  | ΔH | 0.693 ± 0.0416 kcal/mol |
| COc1ccc(N2C(=O)N(c3c(C)cccc3Cl)Cc3cnc(Nc4ccc(C5CCN(C)CC5)cc4OC)nc32)nc1 | Cyclin-dependent kinase 6 (CDK6, Homo sapiens, UniProt Q00534) | kinase activity, inhibitor |  | 0.5 µM, complex with -CYCLIND3 |  | inhibition | 7% |
| CO/N=C(\C(=O)N[C@@H]1C(=O)N2C(C(=O)O)=C(COC(C)=O)CS[C@H]12)c1csc(N)n1 | Penicillin-binding protein 2X (Streptococcus pneumoniae R6, UniProt P59676) | inhibitor | Streptococcus pneumoniae |  |  | kinact/KI | 730000 ± 58000 M⁻¹ s⁻¹ |
| CN(C(=O)n1cnc(-c2ccc[n+]([O-])c2)c1)C1CCCCC1 | Fatty-acid amide hydrolase 1 (Faah, Mus musculus, UniProt O08914) | enzyme activity, inhibitor, ex vivo | rat, liver | oral, 8 h |  | ED50 | 6.2 mg/kg |
| COc1cc(Nc2ncc(F)c(Nc3ccc4c(n3)NC(=O)C(C)(C)O4)n2)cc(OC)c1OC | Phosphatidylinositol 4-phosphate 3-kinase C2 domain-containing subunit beta (PIK3C2B, Homo sapiens, UniProt O00750) | KINOMEscan |  | 10 µM |  | inhibition | 41% |
| C=C(CN(C(=O)c1c(C(F)F)nn(C)c1F)C1CC1)c1ccc(Cl)cc1Cl | SDHD/SDHC/SDHB (Sus scrofa, UniProt A5GZW8+D0VWV4+Q007T0) | enzyme activity, inhibitor, DCIP reduction | pig | 0.06 µM, together with: DCIP 190 µM |  | reaction velocity | 0.0343 µM/s and 0.035 µM/s and 0.0342 µM/s |
| COc1cc(N)c(Cl)cc1C(=O)NC1CN2CCC1CC2 (centres unmarked) | Opsin-3 (OPN3, Homo sapiens, UniProt Q9H1Y3) | β-arrestin recruitment, TANGO luminescence, refers to: OPN3 |  | concentration not given | reference: basal luminescence | log2 fold change | 0.628 |
| COc1cc(C)c2[nH]cc(/C=N/NC(=N)NCCc3ccc(Cl)c(Cl)c3)c2c1 | Relaxin-3 receptor 1 (RXFP3, Homo sapiens, UniProt Q9NSD7) |  |  |  |  | Emax | 96 ± 10% |

A few entries again:
| Structure (SMILES) | target | assay | system | conditions | scale | quantity | result |
| --- | --- | --- | --- | --- | --- | --- | --- |
| CCCc1scc2c1-c1nc(SCC(=O)C(C)(C)C)ncc1CC2 | Dual specificity protein phosphatase 10, catalytic domain (Homo sapiens, UniProt Q9Y6W6) | X-ray co-crystal structure |  | concentration not given |  | active site volume | 51.8 ± 1 Å³ |
| O=C(O)Cc1c[nH]cn1 | Sodium- and chloride-dependent taurine transporter (SLC6A6, Homo sapiens, UniProt P31641, Y138A) | binding, microscale thermophoresis |  | 30.5 nM, room temperature, together with: 50 nM labelled protein | higher = more binding | normalised MST signal | 0.0615 |
| O=C(Nc1cccnn1)N1CCC(=Cc2cccc(Oc3ccc(C(F)(F)F)cn3)c2)CC1 | Alpha-2-HS-glycoprotein (Ahsg, Rattus norvegicus, UniProt P24090) | competitive ABPP with azido-FP probe | rat brain soluble fraction | 0.01 µM, unit not given | reference: DMSO | probe labelling | -1.2 |
| O=C(Nc1cnccc1Cl)N1CCN(Cc2ccc3c(c2)OC(F)(F)O3)CC1 | Metabotropic glutamate receptor 2 (GRM2, Homo sapiens, UniProt Q14416) | radioligand binding |  | 10 µM, together with: [3H]LY341495 |  | inhibition of binding | 9% |
